Measurements from different studies.
Each numbered part is a random draw from the data of one study; scales do not carry over between parts.
Sequence of UniProt Q13555 (whole entry, looked up): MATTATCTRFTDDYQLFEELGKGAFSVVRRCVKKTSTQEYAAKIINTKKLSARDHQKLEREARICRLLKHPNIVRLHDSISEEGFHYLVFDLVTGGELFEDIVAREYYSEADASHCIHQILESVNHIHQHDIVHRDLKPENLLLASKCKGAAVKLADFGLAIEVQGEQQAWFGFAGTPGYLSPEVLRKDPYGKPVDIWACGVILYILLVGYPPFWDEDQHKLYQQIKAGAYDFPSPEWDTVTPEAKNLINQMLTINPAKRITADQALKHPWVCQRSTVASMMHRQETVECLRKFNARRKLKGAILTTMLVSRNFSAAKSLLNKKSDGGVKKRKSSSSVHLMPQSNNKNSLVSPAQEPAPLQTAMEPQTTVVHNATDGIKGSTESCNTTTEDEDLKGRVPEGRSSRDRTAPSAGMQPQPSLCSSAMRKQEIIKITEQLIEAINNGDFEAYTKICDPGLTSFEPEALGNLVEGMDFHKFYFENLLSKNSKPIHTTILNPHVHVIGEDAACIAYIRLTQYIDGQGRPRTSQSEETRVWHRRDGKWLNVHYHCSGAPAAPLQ
Sequence of UniProt P42338 (whole entry, looked up): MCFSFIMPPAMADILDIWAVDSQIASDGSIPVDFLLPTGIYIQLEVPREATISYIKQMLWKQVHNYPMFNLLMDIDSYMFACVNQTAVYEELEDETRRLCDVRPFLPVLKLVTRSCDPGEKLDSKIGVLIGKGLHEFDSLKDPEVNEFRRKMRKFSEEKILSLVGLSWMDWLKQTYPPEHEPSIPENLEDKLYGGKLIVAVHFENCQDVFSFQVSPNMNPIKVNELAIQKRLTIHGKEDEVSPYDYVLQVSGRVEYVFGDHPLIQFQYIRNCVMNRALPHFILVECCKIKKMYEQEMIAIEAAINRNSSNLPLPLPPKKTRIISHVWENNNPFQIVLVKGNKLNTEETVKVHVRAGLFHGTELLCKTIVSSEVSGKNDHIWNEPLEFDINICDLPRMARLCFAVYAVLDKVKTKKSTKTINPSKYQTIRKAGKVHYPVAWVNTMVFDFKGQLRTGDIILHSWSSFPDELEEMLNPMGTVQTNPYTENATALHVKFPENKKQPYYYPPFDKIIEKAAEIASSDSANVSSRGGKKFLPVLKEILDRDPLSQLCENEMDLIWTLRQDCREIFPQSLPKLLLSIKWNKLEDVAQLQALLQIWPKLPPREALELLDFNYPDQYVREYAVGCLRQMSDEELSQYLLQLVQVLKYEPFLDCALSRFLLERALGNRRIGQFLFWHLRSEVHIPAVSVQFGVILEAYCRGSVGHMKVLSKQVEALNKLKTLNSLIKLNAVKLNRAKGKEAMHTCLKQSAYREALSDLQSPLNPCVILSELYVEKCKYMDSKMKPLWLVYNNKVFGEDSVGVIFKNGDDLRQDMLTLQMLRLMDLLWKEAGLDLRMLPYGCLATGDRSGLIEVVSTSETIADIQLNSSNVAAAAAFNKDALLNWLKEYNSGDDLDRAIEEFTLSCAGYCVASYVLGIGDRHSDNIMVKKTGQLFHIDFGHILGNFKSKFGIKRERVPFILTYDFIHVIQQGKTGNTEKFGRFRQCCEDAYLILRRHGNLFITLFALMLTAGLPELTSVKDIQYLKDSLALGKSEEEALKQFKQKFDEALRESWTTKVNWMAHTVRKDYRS
Sequence of UniProt Q96NX5 (whole entry, looked up): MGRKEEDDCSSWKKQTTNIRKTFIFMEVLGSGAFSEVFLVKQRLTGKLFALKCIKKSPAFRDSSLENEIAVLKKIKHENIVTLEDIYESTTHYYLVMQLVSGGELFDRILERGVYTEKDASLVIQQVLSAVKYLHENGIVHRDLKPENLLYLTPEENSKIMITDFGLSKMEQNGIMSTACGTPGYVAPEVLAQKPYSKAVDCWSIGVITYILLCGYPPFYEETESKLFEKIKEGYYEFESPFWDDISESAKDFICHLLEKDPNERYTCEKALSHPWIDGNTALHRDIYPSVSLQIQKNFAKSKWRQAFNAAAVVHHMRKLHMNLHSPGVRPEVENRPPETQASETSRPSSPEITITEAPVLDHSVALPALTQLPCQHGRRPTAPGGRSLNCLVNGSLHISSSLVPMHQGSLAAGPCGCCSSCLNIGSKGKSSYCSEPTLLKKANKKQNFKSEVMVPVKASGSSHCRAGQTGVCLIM
Sequence of UniProt Q02156 (whole entry, looked up): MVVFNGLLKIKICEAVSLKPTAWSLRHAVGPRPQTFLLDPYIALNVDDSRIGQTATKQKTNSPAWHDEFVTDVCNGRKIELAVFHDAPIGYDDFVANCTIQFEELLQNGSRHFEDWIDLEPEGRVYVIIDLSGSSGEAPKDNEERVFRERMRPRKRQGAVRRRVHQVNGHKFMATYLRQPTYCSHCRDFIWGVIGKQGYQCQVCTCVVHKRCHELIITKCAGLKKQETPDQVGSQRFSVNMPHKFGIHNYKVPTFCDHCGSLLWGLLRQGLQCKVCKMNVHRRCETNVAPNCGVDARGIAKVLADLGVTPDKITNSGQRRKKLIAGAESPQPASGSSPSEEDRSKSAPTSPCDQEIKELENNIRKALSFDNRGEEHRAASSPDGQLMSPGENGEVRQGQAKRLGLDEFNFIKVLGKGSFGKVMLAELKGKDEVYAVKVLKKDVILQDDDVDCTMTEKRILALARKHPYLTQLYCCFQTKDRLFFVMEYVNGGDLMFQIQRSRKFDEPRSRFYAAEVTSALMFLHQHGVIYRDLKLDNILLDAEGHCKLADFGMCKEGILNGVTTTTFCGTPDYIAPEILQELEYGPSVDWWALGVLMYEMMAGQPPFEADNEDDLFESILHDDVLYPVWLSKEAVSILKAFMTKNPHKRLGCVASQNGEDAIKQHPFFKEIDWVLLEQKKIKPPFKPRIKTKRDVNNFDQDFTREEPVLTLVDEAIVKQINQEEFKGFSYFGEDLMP
Sequence of UniProt Q9Y6M4 (whole entry, looked up): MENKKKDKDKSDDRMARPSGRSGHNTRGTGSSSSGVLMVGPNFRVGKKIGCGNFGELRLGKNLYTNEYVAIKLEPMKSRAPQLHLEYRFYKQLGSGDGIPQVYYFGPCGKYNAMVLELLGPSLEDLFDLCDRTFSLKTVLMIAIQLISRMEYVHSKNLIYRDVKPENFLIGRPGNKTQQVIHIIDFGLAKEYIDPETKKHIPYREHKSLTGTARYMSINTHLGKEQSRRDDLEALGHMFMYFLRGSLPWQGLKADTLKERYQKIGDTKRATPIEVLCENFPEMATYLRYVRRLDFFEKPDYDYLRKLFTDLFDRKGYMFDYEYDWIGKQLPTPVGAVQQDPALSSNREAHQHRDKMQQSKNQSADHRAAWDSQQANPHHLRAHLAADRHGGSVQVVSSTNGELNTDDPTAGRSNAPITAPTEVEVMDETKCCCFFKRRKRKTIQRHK
Sequence of UniProt Q9UBE8 (whole entry, looked up): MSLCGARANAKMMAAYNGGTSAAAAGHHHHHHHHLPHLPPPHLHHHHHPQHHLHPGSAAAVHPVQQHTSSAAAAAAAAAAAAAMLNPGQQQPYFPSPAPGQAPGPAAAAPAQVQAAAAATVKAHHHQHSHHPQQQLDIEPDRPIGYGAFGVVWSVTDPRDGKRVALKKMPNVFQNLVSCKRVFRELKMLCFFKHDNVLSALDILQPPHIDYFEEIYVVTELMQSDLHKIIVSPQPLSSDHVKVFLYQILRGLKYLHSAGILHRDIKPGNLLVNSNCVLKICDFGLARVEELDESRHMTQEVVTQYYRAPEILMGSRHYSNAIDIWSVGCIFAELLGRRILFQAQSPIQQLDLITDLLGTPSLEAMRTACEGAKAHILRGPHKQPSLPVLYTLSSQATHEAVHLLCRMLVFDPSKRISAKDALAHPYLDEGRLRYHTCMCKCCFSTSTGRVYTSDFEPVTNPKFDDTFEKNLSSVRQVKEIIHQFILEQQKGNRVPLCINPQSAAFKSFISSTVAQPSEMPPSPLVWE

Sample 1
Target: Calcium/calmodulin-dependent protein kinase type II subunit alpha (CAMK2A, Homo sapiens, UniProt Q9UQM7)
Sequence of UniProt Q9UQM7 (whole entry, looked up): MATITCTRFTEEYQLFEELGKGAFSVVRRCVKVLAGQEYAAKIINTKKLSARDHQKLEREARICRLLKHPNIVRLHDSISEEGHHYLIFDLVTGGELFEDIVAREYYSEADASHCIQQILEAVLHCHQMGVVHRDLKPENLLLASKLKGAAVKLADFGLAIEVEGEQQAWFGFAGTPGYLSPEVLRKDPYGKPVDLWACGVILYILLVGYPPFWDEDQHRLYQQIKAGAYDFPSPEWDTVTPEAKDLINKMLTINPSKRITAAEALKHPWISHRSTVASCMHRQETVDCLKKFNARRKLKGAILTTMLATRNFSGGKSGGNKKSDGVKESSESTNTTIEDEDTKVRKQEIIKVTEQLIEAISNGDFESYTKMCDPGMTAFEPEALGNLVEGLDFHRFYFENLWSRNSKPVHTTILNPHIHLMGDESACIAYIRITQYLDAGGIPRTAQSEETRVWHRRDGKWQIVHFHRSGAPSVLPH
Effect on: enzyme activity
Action: inhibitor
Tested at: 10 µM
Quantity: inhibition
Cc1cc(O)cc(O[C@@H]2O[C@H](CO)[C@@H](O)[C@H](O)[C@H]2O)c1: -66%
C[C@]1(C(=O)O)CC[C@]2(C)CC[C@]3(C)C(=CC(=O)[C@@H]4[C@@]5(C)CC[C@H](O[C@@H]6O[C@H](C(=O)O)[C@@H](O)[C@H](O)[C@H]6O[C@@H]6O[C@H](C(=O)O)[C@@H](O)[C@H](O)[C@H]6O)[C@](C)(CO)[C@@H]5CC[C@]43C)[C@@H]2C1: 2%
CC(C)=CC(=O)O: 15%
Cc1cc(O[C@@H]2O[C@H](CO)[C@@H](O)[C@H](O)[C@H]2O)c2c(c1)C(=O)c1cccc(O)c1C2=O: -44%
O=C1C[C@@H](c2ccc(O[C@@H]3O[C@H](CO)[C@@H](O)[C@H](O)[C@H]3O)cc2)Oc2cc(O[C@@H]3OC[C@](O)(CO)[C@H]3O)ccc21: -31%
COc1cc(CCC(C)=O)ccc1O: -15%
O[C@@H]1[C@@H](O)[C@@H]2OC[C@@H](O2)[C@H]1O: -41%
COc1cc2oc(=O)ccc2c(OC)c1CC=C(C)C: -28%
O=C(O)c1ccccc1Nc1cc(Cl)ccc1C(=O)O: -14%
CC1(C)C(=O)[C@]2(C)CC[C@H]1C2: -44%
CCOC(=O)C[N+]1(C)CC[C@@H](OC(=O)[C@](O)(c2ccccc2)C2CCCC2)C1 (stereo partly drawn): -8%
O=C1c2cccc(O)c2C(=O)c2c(O)cc(CO)cc21: -1%
CC(C)(C)NCC(O)CSc1nc(-c2ccc(C(N)=O)s2)cs1 (stereo not drawn): -7%
CN(c1nccc(=O)[nH]1)C1CCN(c2nc3ccccc3n2Cc2ccc(F)cc2)CC1: -7%
CC(C)(C)CC(C)(C)c1ccc(O)c(Cc2ccc(Cl)cc2Cl)c1: -4%
CC(=O)c1ccc2c(c1)C=CC(C)(C)O2: -21%
CCCCCCCCCC(=O)OCC(COC(=O)CCCCCCCCC)OC(=O)CCCCCCCCC: 14%
CC1(C)CC[C@]2(C(=O)O)[C@H](O)C[C@]3(C)C(=CC[C@@H]4[C@@]5(C)CC[C@H](O)[C@@](C)(C=O)[C@@H]5CC[C@]43C)[C@@H]2C1: -10%
Clc1cccc(C(c2ccc3[nH]cnc3c2)n2ccnc2)c1 (stereo not drawn): -12%

Sample 2
Compound: COc1cc(C(=O)N2CCC(N3CCN(C)CC3)CC2)ccc1Nc1ncc2c(n1)N(C)c1ccccc1C(=O)N2C
Quantity: inhibition
HCK (human); probe labelling, KiNativ ADP probe; human PBMC lysate; concentration not given, LYS1 labelled site: -1.1%
Protein kinase C zeta type (Prkcz, Mus musculus, UniProt Q02956); probe labelling, KiNativ, item: Lys1 site peptide; brain tissue lysate (mouse); 0.1 µM, added: ADP acyl-phosphate probe: 8.4%
FES (human); probe labelling, KiNativ ADP probe; human PBMC lysate; concentration not given, LYS1 labelled site: -16.8%
ZC1/HGK (mouse); probe labelling, KiNativ, item: LYS1 site peptide; brain tissue lysate (mouse); 0.1 µM, added: ATP acyl-phosphate probe: 5.6%
CSK (mouse); KiNativ ADP probe; mouse brain tissue; 1 µM, probe site LYS1: 3.2%
TNIK (mouse); probe labelling, inhibitor, KiNativ ActivX ADP probe; mouse brain lysate; 1 µM, Lys1 site peptide: 6.9%
SLK (human); probe labelling, KiNativ, item: Lys1 site peptide; PBMC lysate (human); 0.1 µM, added: ATP acyl-phosphate probe: 5.4%
NIM1 (mouse); probe labelling, KiNativ ATP probe; mouse brain lysate; 1 µM, LYS1 labelled site: -12.2%
TRKB (mouse); probe labelling, inhibitor, KiNativ ActivX ATP probe; mouse brain lysate; 1 µM, Lys1 site peptide: -25.5%
PRKX and PRKY human; KiNativ profiling; human PBMC; 0.1 µM, LYS1 site, added: ADP acyl phosphate probe: -11.6%
INSR (mouse); probe labelling, KiNativ ADP probe; mouse brain lysate; 1 µM, LYS1 labelled site: 16%
MINK (mouse); probe labelling, inhibitor, KiNativ ActivX ATP probe; mouse brain lysate; 1 µM, Lys1 site peptide: 5.7%
TBK1 mouse; KiNativ profiling; mouse brain lysate; 0.1 µM, LYS1 site, added: ATP acyl phosphate probe: 9.8%
ZAP70 (human); probe labelling, KiNativ, item: DFG motif peptide; PBMC lysate (human); 1 µM, added: ADP acyl-phosphate probe: 24.2%
STLK5 (mouse); probe labelling, inhibitor, KiNativ ActivX ATP probe; mouse brain lysate; 1 µM, activation loop peptide: 7%
PIP4K2C (mouse); probe labelling, KiNativ, item: VKELPTLkDMDFLNK peptide, ATP site; brain tissue lysate (mouse); 1 µM, added: ATP acyl-phosphate probe: 15.4%

Sample 3
SMILES: CO[C@@H](C)c1c(Nc2ccc([C@H](N(C)C(=O)C3CCS(=O)(=O)CC3)C(F)(F)F)cc2)cnc2cc(Cl)nn12
Technique: competition with immobilised ligand
Tested at: 1 µM
Quantity: remaining binding
BRSK2 (Homo sapiens, UniProt Q8IWQ3); cell-free assay: 79%
MAP2K2 (Homo sapiens, UniProt P36507); cell-free assay: 96%
PRKCE (Homo sapiens, UniProt Q02156); cell-free assay: 100%
TSSK3 (Homo sapiens, UniProt Q96PN8); cell-free assay: 81%
ROCK2 (Homo sapiens, UniProt O75116); cell-free assay: 100%
NTRK2 (Homo sapiens, UniProt Q16620); cell-free assay: 100%
CAMK1G (Homo sapiens, UniProt Q96NX5); cell-free assay: 100%
CSNK1G3 (Homo sapiens, UniProt Q9Y6M4); cell-free assay: 72%
eIF-2-alpha kinase GCN2, C-terminal kinase domain (EIF2AK4, Homo sapiens, UniProt Q9P2K8, S808G); cell-free assay: 78%
EGFR (Homo sapiens, UniProt P00533, del747-752/P753S); cell-free assay: 100%
CAMK4 (Homo sapiens, UniProt Q16566); cell-free assay: 100%
Tyrosine-protein kinase ABL1, non-phosphorylated (ABL1, Homo sapiens, UniProt P00519, F317L); cell-free assay: 100%
PIK3CB (Homo sapiens, UniProt P42338); cell-free assay: 65%
BMPR1A (Homo sapiens, UniProt P36894); binding: 71%
CAMK2G (Homo sapiens, UniProt Q13555); cell-free assay: 77%
TESK1 (Homo sapiens, UniProt Q15569); cell-free assay: 85%
NLK (Homo sapiens, UniProt Q9UBE8); cell-free assay: 83%
MST1R (Homo sapiens, UniProt Q04912); cell-free assay: 100%
PAK6 (Homo sapiens, UniProt Q9NQU5); cell-free assay: 100%
PRKD2 (Homo sapiens, UniProt Q9BZL6); cell-free assay: 83%
MAP2K1 (Homo sapiens, UniProt Q02750); cell-free assay: 100%
PIK3CD (Homo sapiens, UniProt O00329); cell-free assay: 98%

Sample 4
Target: Myosin light chain kinase 2, skeletal/cardiac muscle (MYLK2, Homo sapiens, UniProt Q9H1R3)
Sequence of UniProt Q9H1R3 (whole entry, looked up): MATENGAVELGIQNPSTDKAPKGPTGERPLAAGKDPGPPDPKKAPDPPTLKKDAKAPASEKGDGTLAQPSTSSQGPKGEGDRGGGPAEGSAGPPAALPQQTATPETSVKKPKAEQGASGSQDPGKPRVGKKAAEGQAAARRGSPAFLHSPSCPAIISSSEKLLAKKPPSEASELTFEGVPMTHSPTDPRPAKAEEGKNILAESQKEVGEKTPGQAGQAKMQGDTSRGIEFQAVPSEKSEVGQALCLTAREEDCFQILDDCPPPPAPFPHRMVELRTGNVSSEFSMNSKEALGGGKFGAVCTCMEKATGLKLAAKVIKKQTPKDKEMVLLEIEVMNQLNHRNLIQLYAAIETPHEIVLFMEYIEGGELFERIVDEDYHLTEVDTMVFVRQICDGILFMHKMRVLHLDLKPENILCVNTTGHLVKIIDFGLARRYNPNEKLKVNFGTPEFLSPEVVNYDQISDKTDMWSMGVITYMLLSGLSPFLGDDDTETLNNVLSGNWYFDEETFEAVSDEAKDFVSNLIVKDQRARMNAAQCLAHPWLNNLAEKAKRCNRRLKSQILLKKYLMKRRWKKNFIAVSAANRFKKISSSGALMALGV
Effect on: enzyme activity
Action: inhibitor
Tested at: 0.5 µM
Reference: control
Quantity: remaining activity
CCCCc1c(-c2ccc(OC)cc2)[nH]c2nccnc12: 102%
COc1ccc(COc2ccc(Cc3cnc(N)nc3N)cc2OC)cc1: 104%
O=C1Nc2ccccc2/C1=C\c1c(Cl)[nH]c2ccccc12: 94.6%
O=C1NC(=O)c2c1c1c3ccccc3[nH]c1n1cncc21: 33.7%
c1ccc2c(-c3ccncc3)c[nH]c2c1: 96.2%
O=C1NC(=O)c2c1c1c3ccccc3[nH]c1c1[nH]c3cc(Br)ccc3c21: 43.3%
N#Cc1cnc2cnc(NCc3cccnc3)cc2c1Nc1ccc(F)c(Cl)c1: 96.2%
O=C1Cc2c([nH]c3ccc(Br)cc23)-c2ccccc2N1: 96.8%
O=C1Nc2ccc(Br)cc2/C1=C/c1cc2c([nH]1)CCCC2: 78.2%
CN1CCN(c2ccc3nc(-c4c(N)c5c(F)cccc5[nH]c4=O)[nH]c3c2)CC1: 5.92%
COc1cccc(-c2cc(=O)c3ccccc3o2)c1N: 101%
CN(C)S(=O)(=O)c1ccc2c(c1)/C(=C/c1cc3c([nH]1)CCCC3)C(=O)N2: 97.9%
COc1ccc2c(c1)c(C1=C(c3c[nH]c4ccccc34)C(=O)NC1=O)cn2CCCN(C)C: 96%
O=c1cc(N2CCOCC2)oc2c(-c3ccccc3)cccc12: 102%
Oc1cccc(-c2nc(N3CCOCC3)c3oc4ncccc4c3n2)c1: 99%
CCCNC(=O)Nc1ccc(Oc2ncnc3cc(OC)c(OC)cc23)cc1Cl: 99.9%
Cc1cc(Nc2cc(N3CCN(C)CC3)nc(Sc3ccc(NC(=O)C4CC4)cc3)n2)[nH]n1: 18.9%
Cc1ccc(S(=O)(=O)/C=C/C#N)cc1: 105%
c1ccc(-c2n[nH]c3c2oc2ccccc23)cc1: 66.6%
O=Nc1c(-c2c(O)[nH]c3cc(Br)ccc23)[nH]c2ccccc12: 17.6%
O=C(c1cc2cc(O)ccc2[nH]1)c1cc2cc(O)ccc2[nH]1: 21.1%

A few entries again (sample 1):
CC(=O)c1ccc2c(c1)C=CC(C)(C)O2: -21%
CCCCCCCCCC(=O)OCC(COC(=O)CCCCCCCCC)OC(=O)CCCCCCCCC: 14%
CC1(C)CC[C@]2(C(=O)O)[C@H](O)C[C@]3(C)C(=CC[C@@H]4[C@@]5(C)CC[C@H](O)[C@@](C)(C=O)[C@@H]5CC[C@]43C)[C@@H]2C1: -10%
Clc1cccc(C(c2ccc3[nH]cnc3c2)n2ccnc2)c1 (stereo not drawn): -12%
